# Experimental data collected from several papers.
# Protocols differ between the studies behind these lines. “And” joins repeats or separate records; there may be more than shown. ± gives the spread as reported.
Structure (SMILES),assay,system,setting,scale,measurement,value
CN1CCC[C@]1(C)/C=C/S(=O)(=O)NC(=O)Nc1c2c(cc3c1CCC3)CCC2,,"human, whole blood ex vivo","12.5 mg twice daily, day 19, 108 h, multiple ascending dose, together with: LPS and ATP",,IL-18 inhibition,-59.3%
CC(=O)[O-].O.[Cu+2].[O-]c1ccc(Br)cc1C=NCCN1CCOCC1,FRAP,,160 µM,,ferric reducing power,43%
COc1cc(O)ccc1CCC(c1ccc(O)cc1)c1cc2c(c(C)c1O)OC(c1ccc(O)cc1)CC2 (mixture of isomers),refers to: 4-HDHA,human whole blood,"0.3 µM, together with: Escherichia coli",,amount,86 ± 35 pg/mL blood
C[C@@H](Nc1c(-c2c(F)cc(C#N)cc2F)c(Cl)nc2ncnn12)C(C)(C)C,,"male PS19 tau transgenic mice, brain","intraperitoneal, 3 mg/kg twice weekly, 3 months",baseline: vehicle,Iba1 microglial staining,decreased
NC[C@@H](C(=O)Nc1ccc(-c2cn[nH]c2)cc1)c1ccccc1,tonometry,"NZW rabbit, magnetic bead-induced ocular hypertension","ocular, 0.03%, 8 h",,IOP,33.7 mmHg
COC(=O)C1CN1S(=O)(=O)c1ccc2cc(C)ccc2c1 (centres unmarked),,"mouse, Lewis lung carcinoma","ip, 100 mg/kg, 264 h",,tumour growth inhibition,48%
COc1c(Cl)cccc1Nc1c(-c2ccncc2C#C[C@@]2(C)CCCN2C(=O)/C=C/CN(C)C)[nH]c2c1C(=O)NCC2,,"NCI-H2073 EGFR SVD knock-in xenograft, BALB/c nude mice","50 mg/kg once daily, 21 days",,tumour growth inhibition,107%
COc1ccc(C(=O)CCc2cc(C(CCc3ccc(O)cc3OC)c3ccc(O)cc3)c(O)cc2OC)cc1 (racemic),,human blood,"0.3 µM, together with: A23187",,LTB4 level,2250 ± 908 pg/mL
O=[N+]([O-])[O-].O=c1c(C=NN=C([S-])Nc2ccccc2)coc2ccccc12.[Cu+2].c1ccc(-c2ccccn2)nc1,oxidative DNA cleavage,supercoiled pUC19 DNA,"100 µM, 30 min, together with: ascorbic acid 50 µM, DNA 40 µM",,supercoiled DNA form,80%
CC(C)OC(=O)[C@H](CO)NCc1cc(Cl)c(OCc2cccc(-c3ccccc3)c2Br)cc1OCc1cccnc1,,"hPD-L1 MC-38 tumour, humanised hPD-1 C57BL/6 mouse","oral, 10 mg/kg × 21, day 1, baseline",,tumour volume,128 ± 11.1 mm³
COc1ccc(NC(=O)c2ccc3[nH]c(-c4ccc(N(C)C)cc4)nc3c2)cn1,,"CT26, BALB/c mice, subcutaneous syngeneic graft","dose not given, day 11",,tumour volume,533 mm3 and 71.9 mm3 and 65.4 mm3 and 630 mm3 and 599 mm3
COC1CN([C@H]2CC[C@H]([C@@]3(C)Oc4c(Cl)cc(C(=O)NCc5c(SC)cc(C)[nH]c5=O)c(C)c4O3)CC2)C1,"RNA-seq, refers to: F5","human cancer patients, whole blood","dose not given, 24 h, PRC2 target gene",baseline: pretreatment sample,log2 fold change,1.82
O=S(=O)(NCc1ccncc1)c1ccc(C2CCCCC2)cc1,CD11b FACS,"CK-p25 mice, female, whole brain","intraperitoneal, 0.3 mg/kg daily for 2 weeks, 336 h",,microglia population,1.8 ± 0.46%
O=[N][Fe]1([N]=O)[S](CCO)[Fe]([N]=O)([N]=O)[S]1CCO,,"aged C57BL/6JNarl mice, Western diet, serum","oral, 2.65 mg/kg daily, 16 weeks",,serum total cholesterol,166 ± 39.8 mg/dL
CC(CCC(=O)NCc1ccc(C(=O)NO)cc1)C1CCC2C3C(O)CC4CC(O)CCC4(C)C3CCC12C (centres unmarked),refers to: UDCA,"PCK rat (Pkhd1 mutant), liver","oral gavage, dose not given, 5 months",baseline: total bile acids,relative abundance,0.21%
COCC1CN(C2CCN(c3cc(OC)c(Nc4ncc(Br)c(Nc5ccc6c(c5P(C)(C)=O)OCCO6)n4)cc3C)CC2)C1,RECIST 1.1,advanced EGFR-mutant NSCLC patients,10 mg once daily,,partial response,0%
Cl.[2H]C([2H])([2H])CC(=O)c1cnc(NC(=O)C2CC2)cc1Nc1cccc(-c2ncn(C([2H])([2H])[2H])n2)c1OC,IFNα-induced STAT phosphorylation,human whole blood,,,IC90,0.144 µg/mL
CCCCCCCCCCCCCCCC(=O)OCC(CSC[C@H](N)C(=O)N[C@@H](CO)C(=O)N[C@@H](CCCCN)C(=O)N[C@@H](CCCCN)C(=O)N[C@@H](CCCCN)C(=O)N[C@@H](CCCCN)C(=O)NCCCCCC(=O)N[C@@H](CCCCN)C(=O)N[C@@H](CC(C)C)C(=O)N[C@H](C(=O)N[C@@H](Cc1ccccc1)C(=O)N[C@@H](Cc1ccccc1)C(=O)N[C@@H](Cc1ccc2ccccc2c1)C(=O)O)C(C)C)OC(=O)CCCCCCCCCCCCCCC (some centres unmarked),,"APP/PS1 transgenic mouse, hippocampus","intrahippocampal, dose not given, 5 d, unit not given",baseline: injected over adjacent side,Iba1 level,0.878 and 0.854 and 1.26 and 0.829 and 0.891
COc1ccccc1-c1ccncc1C(=O)Nc1nnc(OCc2ccc(Cl)cc2)s1,,"Brca1 Δ11/Δ11 MEF sgGFP, Mus musculus","1.25 µM, mean of all runs",baseline: 0 µM,colony survival,88%
COCCOCCOCCNC(=O)Cc1cc(CC(=O)N[C@H]2C[C@H]3C(=O)Nc4cc(OCCOCCOCCOC)cc(n4)C(=O)N4CCC[C@H]4C(=O)Nc4cc(OCCOCCOCCOC)cc(n4)C(=O)N4CCC[C@H]4C(=O)Nc4cc(OCCOCCOCCOC)cc(n4)C(=O)N3C2)cc(CC(=O)N[C@H]2C[C@H]3C(=O)Nc4cc(OCCOCCOCCOC)cc(n4)C(=O)N4CCC[C@H]4C(=O)Nc4cc(OCCOCCOCCOC)cc(n4)C(=O)N4CCC[C@H]4C(=O)Nc4cc(OCCOCCOCCOC)cc(n4)C(=O)N3C2)c1,"anion binding, ITC",water/methanol 95 vol% (97.7 mol%),"298 K, together with: sodium iodide",,ΔH,-1.1 ± 0.0239 kcal/mol

# Excerpt of the above:
Structure (SMILES),assay,system,setting,scale,measurement,value
COc1c(Cl)cccc1Nc1c(-c2ccncc2C#C[C@@]2(C)CCCN2C(=O)/C=C/CN(C)C)[nH]c2c1C(=O)NCC2,,"NCI-H2073 EGFR SVD knock-in xenograft, BALB/c nude mice","50 mg/kg once daily, 21 days",,tumour growth inhibition,107%
COc1ccc(C(=O)CCc2cc(C(CCc3ccc(O)cc3OC)c3ccc(O)cc3)c(O)cc2OC)cc1 (racemic),,human blood,"0.3 µM, together with: A23187",,LTB4 level,2250 ± 908 pg/mL
